Published values of several laboratories.
Each numbered part is a random draw from the data of one study; scales do not carry over between parts. Several values in a cell are separate wells, animals, samples, runs or records.
Sequence of UniProt Q96SW2 (whole entry, looked up): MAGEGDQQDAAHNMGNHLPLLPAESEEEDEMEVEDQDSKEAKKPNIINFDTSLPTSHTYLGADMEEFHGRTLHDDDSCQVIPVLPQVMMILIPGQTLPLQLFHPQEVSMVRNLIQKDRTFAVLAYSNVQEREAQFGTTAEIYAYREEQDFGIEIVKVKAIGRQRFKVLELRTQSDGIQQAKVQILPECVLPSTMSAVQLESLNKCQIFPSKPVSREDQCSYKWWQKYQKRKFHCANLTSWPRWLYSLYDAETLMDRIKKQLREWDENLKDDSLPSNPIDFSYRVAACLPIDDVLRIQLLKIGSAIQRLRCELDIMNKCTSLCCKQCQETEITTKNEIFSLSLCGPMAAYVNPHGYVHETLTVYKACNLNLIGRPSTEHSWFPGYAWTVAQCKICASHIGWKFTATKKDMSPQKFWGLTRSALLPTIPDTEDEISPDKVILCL
Sequence of UniProt P68400 (whole entry, looked up): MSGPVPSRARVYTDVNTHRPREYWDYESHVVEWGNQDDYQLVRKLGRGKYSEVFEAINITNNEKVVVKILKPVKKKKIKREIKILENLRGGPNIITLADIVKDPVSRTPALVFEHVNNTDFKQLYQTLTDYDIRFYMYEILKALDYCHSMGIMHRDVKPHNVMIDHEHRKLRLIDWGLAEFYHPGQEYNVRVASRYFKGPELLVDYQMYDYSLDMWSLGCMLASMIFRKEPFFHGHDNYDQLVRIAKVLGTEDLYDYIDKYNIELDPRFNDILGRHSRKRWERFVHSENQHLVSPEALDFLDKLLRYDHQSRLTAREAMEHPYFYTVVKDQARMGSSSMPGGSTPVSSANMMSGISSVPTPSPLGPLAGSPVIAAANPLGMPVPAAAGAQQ

Block 1
Target: Eukaryotic initiation factor 4A-III (Homo sapiens, UniProt P38919)
Sequence of UniProt P38919 (whole entry, looked up): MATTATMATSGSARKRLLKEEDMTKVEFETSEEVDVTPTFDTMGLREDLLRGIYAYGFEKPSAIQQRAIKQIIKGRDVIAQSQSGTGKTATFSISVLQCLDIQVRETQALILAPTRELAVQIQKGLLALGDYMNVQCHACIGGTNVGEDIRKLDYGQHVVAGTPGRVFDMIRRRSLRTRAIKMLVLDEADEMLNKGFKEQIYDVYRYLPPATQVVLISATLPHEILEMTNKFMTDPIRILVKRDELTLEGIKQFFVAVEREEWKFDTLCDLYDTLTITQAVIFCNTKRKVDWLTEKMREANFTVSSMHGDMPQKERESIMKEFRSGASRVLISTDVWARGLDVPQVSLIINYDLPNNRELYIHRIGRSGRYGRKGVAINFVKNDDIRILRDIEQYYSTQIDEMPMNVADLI
Read-out: RNA clamping
Technique: fluorescence polarization
Concentration: concentration not given
Added: FAM-labelled poly r(AG)8 RNA
| SMILES | fluorescence polarization change |
| --- | --- |
| COc1ccc([C@@]23Oc4cc(OC)cc(OC)c4[C@]2(O)c2nc(-c4ccccc4)n(C)c(=O)c2[C@H]3c2ccccc2)cc1 | 17.9 mP |
| COc1ccc([C@@]23Oc4cc(OC)cc(OC)c4[C@]2(O)c2nc(-c4cnccn4)[nH]c(=O)c2[C@H]3c2ccccc2)cc1 | 22.3 mP |
| COc1ccc([C@@]23Oc4cc(OC)cc(OC)c4[C@]2(O)c2nc(-c4ccncc4)[nH]c(=O)c2[C@H]3c2ccccc2)cc1 | 18.5 mP |
| COC(=O)Cc1nc2c(c(=O)[nH]1)[C@@H](c1ccccc1)[C@]1(c3ccc(OC)cc3)Oc3cc(OC)cc(OC)c3[C@]21O | 19.3 mP |
| COc1ccc([C@@]23Oc4cc(OC)cc(OC)c4[C@]2(O)c2nc(-c4ccc(N(C)C)cc4)[nH]c(=O)c2[C@H]3c2ccccc2)cc1 | 12.2 mP |
| CONC(=O)[C@H]1[C@@H](O)[C@@]2(O)c3c(OC)cc(OC)cc3O[C@@]2(c2ccc(OC)cc2)[C@@H]1c1ccccc1 | 44.5 mP and 51.8 mP and 35.3 mP |
| COc1ccc([C@@]23Oc4cc(OC)cc(OC)c4[C@@]24NC(C)=N[C@@]4(O)[C@H](C(=O)N(C)C)[C@H]3c2ccccc2)cc1 | 54.3 mP |
| CCOc1ccccc1-c1nc2c(c(=O)[nH]1)[C@@H](c1ccccc1)[C@]1(c3ccc(OC)cc3)Oc3cc(OC)cc(OC)c3[C@]21O | 42.7 mP |
| COCC1=N[C@@]2(O)[C@H](C(=O)OC)[C@@H](c3ccccc3)[C@]3(c4ccc(OC)cc4)Oc4cc(OC)cc(OC)c4[C@]23N1 | 21.2 mP and 33.2 mP |
| CCOC(=O)[C@H]1[C@@H](c2ccccc2)[C@]2(c3ccc(Br)cc3)Nc3cc(OC)cc(OC)c3[C@@]1(O)[C@H]2O | 6.4 mP |
| COC(=O)[C@@H]1[C@@H](c2ccccc2)[C@]2(c3ccc(OC)cc3)Oc3cc(OC)cc(OC)c3[C@@]23N=C(C2CC2)N[C@@]13O | 27 mP and 70.8 mP |
| COCC1=N[C@@]2(O)[C@H](C(=O)N(C)OC)[C@@H](c3ccccc3)[C@]3(c4ccc(OC)cc4)Oc4cc(OC)cc(OC)c4[C@]23N1 | 26.4 mP |
| COc1ccc([C@@]23Oc4cc(OC)cc(OC)c4[C@@]24NC(C2CC2)=N[C@@]4(O)[C@H](C(=O)N(C)OC)[C@H]3c2ccccc2)cc1 | 39.9 mP |
| COc1ccc([C@@]23Oc4cc(OC)cc(OC)c4[C@]2(O)c2nc(-c4ccc(F)cc4)[nH]c(=O)c2[C@H]3c2ccccc2)cc1 | 5.1 mP |
| COc1ccc([C@@]23Oc4cc(OC)cc(OC)c4[C@]2(O)c2nc(-c4cccc(C)c4)[nH]c(=O)c2[C@H]3c2ccccc2)cc1 | 12.3 mP |
| COc1ccc([C@@]23Oc4cc(OC)cc(OC)c4[C@]2(O)c2nc(-c4ccc(Br)cc4)[nH]c(=O)c2[C@H]3c2ccccc2)cc1 | 3.5 mP |
| COc1ccc([C@@]23Oc4cc(OC)cc(OC)c4[C@]2(O)[C@H](O)[C@H](C(=O)O)[C@H]3c2ccccc2)cc1 | 34.9 mP and 16.2 mP |
| C#CCOc1nc(-c2ccccc2)nc2c1[C@@H](c1ccccc1)[C@]1(c3ccc(OC)cc3)Oc3cc(OC)cc(OC)c3[C@]21OCC#C | 11.5 mP |

Block 2
Cell line: mouse MPNST tumor cells
Technique: high-content nuclear imaging
Item: cell number
Concentration: 10 µM
Time: 12 h
Notes: mean of 2 replicates
Relative to: plate mean
Direction: higher = more cells
| Compound | nuclei count |
| --- | --- |
| CN(C)CCN(C)CCc1ccc(Cl)c(Cl)c1 | 0.84 z-score |
| Nc1ncnc2c1ccn2[C@@H]1O[C@H]([C@H](O)c2ccccc2)[C@@H](O)[C@H]1O | 2.77 z-score |
| C[C@@H]1C[C@@H]([C@H](O)CC2CC(=O)NC(=O)C2)C(=O)[C@@H](C)C1 | -3.85 z-score |
| NCC(CC(=O)O)c1ccc(Cl)cc1 (racemic) | 0.363 z-score |
| C[C@]12CC[C@H](O)C[C@H]1CC[C@@H]1[C@@H]2C[C@@H](O)[C@]2(C)[C@@H](C3=CC(=O)OC3)CC[C@]12O | 0.976 z-score |

Block 3
Target: Calcium/calmodulin-dependent protein kinase type II subunit alpha (CAMK2A, Homo sapiens, UniProt Q9UQM7)
Sequence of UniProt Q9UQM7 (whole entry, looked up): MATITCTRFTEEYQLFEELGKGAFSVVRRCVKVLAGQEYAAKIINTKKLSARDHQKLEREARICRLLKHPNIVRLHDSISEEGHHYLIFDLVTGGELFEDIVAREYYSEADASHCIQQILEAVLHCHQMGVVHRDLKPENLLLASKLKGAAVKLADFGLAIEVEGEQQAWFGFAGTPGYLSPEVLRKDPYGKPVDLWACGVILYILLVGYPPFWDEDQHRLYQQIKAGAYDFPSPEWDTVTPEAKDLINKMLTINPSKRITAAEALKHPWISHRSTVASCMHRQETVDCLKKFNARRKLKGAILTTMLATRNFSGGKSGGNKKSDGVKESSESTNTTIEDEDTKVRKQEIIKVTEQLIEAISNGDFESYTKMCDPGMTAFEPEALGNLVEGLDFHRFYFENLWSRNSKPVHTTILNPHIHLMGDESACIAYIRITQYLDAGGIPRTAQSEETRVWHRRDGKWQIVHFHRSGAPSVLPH
Read-out: enzyme activity
Mode: inhibitor
Concentration: 10 µM
| Compound | inhibition [%] |
| --- | --- |
| CC(C)=CC[C@@H](OC(=O)CC(C)(C)O)C1=CC(=O)c2c(O)ccc(O)c2C1=O | -1 |
| CN1Cc2c(ccc3c2OCO3)[C@@H]2[C@H]1c1cc3c(cc1C[C@@H]2O)OCO3 | 5 |
| CC(C)(O)/C=C/C(=O)[C@](C)(O)[C@H]1[C@H](O)C[C@@]2(C)[C@@H]3CC=C4[C@@H](C[C@H](O)C(=O)C4(C)C)[C@]3(C)C(=O)C[C@]12C | 12 |
| C1=Cc2cccc3cccc1c23 | 37 |
| CN1CCc2cc3c(c4c2[C@H]1Cc1ccccc1-4)OCO3 | -40 |

Block 4
Target: Cyclin-dependent kinase 2 homolog (CRK2, Plasmodium falciparum, UniProt P61075)
Sequence of UniProt P61075 (whole entry, looked up): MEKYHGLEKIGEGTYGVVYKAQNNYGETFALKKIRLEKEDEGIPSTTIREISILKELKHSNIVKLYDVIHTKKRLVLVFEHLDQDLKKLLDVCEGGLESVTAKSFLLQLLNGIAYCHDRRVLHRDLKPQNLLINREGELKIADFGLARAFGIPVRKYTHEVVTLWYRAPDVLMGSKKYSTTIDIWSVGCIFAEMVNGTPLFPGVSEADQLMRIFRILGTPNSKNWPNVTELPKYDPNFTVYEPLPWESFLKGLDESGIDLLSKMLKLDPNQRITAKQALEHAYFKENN
Read-out: cell-free assay
Technique: competition with immobilised ligand
Concentration: 1 µM
| SMILES | remaining binding |
| --- | --- |
| Cc1nccc(COC(=O)N2C[C@@H]3[C@@H](CNC(=O)c4ccc5[nH]nnc5c4)[C@@H]3C2)n1 | 85% |
| C[C@@H](c1cccc(C#N)c1)n1cc(Cl)cc(C(N)=O)c1=N | 100% |
| NS(=O)(=O)c1cc(NC(=O)Cc2ccccc2)ccc1Oc1cccc(Cl)c1 | 100% |

Mixed results
POLQ ATPase domain: DNA polymerase theta, ATPase domain (POLQ, Homo sapiens, UniProt O75417)
Sequence of UniProt O75417 (whole entry, unmodified, looked up): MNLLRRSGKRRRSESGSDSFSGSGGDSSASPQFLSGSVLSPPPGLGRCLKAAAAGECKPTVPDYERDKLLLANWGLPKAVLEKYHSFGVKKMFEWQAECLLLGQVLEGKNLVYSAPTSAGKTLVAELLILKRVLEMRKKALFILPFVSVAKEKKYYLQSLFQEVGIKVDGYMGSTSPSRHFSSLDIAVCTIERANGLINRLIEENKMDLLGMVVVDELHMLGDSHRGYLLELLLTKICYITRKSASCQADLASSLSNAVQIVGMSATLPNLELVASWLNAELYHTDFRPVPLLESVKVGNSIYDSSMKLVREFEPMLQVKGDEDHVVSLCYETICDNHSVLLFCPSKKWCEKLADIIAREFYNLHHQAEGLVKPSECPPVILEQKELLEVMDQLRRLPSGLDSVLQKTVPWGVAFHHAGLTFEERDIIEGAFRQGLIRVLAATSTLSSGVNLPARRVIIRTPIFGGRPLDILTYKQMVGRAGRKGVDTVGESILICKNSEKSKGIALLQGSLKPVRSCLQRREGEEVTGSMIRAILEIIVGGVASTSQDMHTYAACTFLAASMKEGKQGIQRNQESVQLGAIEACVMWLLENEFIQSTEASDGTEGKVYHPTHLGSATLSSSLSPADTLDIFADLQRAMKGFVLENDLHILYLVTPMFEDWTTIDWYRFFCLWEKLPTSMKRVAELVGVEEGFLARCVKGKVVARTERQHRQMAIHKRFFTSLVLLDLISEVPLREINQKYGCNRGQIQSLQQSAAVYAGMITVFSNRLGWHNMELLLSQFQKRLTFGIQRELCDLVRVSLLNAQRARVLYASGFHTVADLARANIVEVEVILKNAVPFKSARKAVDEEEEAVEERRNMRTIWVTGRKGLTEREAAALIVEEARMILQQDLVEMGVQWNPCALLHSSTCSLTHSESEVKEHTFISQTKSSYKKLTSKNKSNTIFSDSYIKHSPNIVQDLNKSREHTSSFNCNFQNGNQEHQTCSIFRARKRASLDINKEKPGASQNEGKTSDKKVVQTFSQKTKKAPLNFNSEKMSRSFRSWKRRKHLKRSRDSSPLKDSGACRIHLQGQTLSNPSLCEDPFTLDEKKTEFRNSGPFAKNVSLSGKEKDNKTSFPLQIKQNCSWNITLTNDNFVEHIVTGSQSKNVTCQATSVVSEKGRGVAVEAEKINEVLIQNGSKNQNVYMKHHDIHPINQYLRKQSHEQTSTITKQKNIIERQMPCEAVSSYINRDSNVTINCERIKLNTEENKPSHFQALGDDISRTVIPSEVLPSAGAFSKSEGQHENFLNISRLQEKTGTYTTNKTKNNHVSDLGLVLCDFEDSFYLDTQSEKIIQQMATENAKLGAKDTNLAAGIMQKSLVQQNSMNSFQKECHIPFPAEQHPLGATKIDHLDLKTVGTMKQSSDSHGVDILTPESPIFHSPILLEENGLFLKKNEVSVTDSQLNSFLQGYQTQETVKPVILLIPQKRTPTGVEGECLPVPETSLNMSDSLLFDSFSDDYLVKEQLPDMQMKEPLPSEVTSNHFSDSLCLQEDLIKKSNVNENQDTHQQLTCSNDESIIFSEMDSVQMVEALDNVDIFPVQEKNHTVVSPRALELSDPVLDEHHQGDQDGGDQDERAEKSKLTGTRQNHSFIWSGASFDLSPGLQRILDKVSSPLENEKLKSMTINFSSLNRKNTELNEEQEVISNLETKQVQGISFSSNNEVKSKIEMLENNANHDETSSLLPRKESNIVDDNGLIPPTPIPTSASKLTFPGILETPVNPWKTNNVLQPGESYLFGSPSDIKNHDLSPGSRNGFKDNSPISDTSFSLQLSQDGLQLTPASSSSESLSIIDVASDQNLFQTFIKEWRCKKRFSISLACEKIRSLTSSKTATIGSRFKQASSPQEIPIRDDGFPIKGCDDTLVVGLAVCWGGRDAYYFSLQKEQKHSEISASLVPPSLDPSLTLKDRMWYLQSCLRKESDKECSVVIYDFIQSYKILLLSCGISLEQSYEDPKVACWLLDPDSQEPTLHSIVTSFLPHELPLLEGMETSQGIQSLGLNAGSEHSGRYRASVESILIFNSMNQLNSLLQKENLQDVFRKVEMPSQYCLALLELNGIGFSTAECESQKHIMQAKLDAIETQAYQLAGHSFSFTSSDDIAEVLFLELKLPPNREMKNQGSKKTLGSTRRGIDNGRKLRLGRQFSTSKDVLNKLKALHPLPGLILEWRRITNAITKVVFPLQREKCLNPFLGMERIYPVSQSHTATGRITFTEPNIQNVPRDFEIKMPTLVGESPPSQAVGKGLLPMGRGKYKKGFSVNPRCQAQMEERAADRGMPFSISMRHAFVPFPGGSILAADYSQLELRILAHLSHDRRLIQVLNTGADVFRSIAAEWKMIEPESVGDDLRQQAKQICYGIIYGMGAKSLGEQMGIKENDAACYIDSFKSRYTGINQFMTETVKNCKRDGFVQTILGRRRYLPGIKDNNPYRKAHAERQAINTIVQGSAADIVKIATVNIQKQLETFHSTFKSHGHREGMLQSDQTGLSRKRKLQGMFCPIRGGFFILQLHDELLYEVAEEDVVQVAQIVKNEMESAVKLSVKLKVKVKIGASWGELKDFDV
| SMILES | target | assay | test system | setting | how to read | quantity | value |
| --- | --- | --- | --- | --- | --- | --- | --- |
| CCC1(C2=NCCN2)Cc2ccccc2O1 (stereo not drawn) | POLQ ATPase domain | enzyme activity, inhibitor | – | 77 µM | relative to: untreated | remaining activity | 100% |
| CN[C@@H]1C[C@H]2O[C@@](C)([C@@H]1OC)n1c3ccccc3c3c4c(c5c6ccccc6n2c5c31)C(=O)NC4 | CSNK2A1 (Homo sapiens, UniProt P68400) | enzyme activity, inhibitor | – | 0.5 µM | – | activity vs control | 87.9% |
| C[C@@H]1C[C@H](C)C[C@H](C)[C@@H](O)CC(=O)O[C@H]([C@@H]2CCC[C@H]2C(=O)O)C/C=C/C=C(/C#N)[C@H](O)[C@@H](C)C1 | Bromodomain-containing protein 4, BD1 (BRD4, Homo sapiens, UniProt O60885) | – | – | 50 µM | – | inhibition | 12.6% |
| CC(C)c1c(CN(C)C(C)Cc2ccccc2)n(C)n(-c2ccccc2)c1=O (stereo not drawn) | POLQ ATPase domain | enzyme activity, inhibitor | – | 77 µM | relative to: untreated | remaining activity | 99.8% |
| O=C1CCC(N2Cc3c(ccc4c3OCC43CCN(Cc4ccccc4)CC3(F)F)C2=O)C(=O)N1 (stereo not drawn) | CRBN/Zinc finger protein Helios (Homo sapiens, UniProt Q96SW2+Q9UKS7) | degrader, HiBiT | HEK293 | 0.1694 nM | – | protein remaining | 101% |

Some of these lines once more (block 1):
| SMILES | fluorescence polarization change |
| --- | --- |
| COCC1=N[C@@]2(O)[C@H](C(=O)N(C)OC)[C@@H](c3ccccc3)[C@]3(c4ccc(OC)cc4)Oc4cc(OC)cc(OC)c4[C@]23N1 | 26.4 mP |
| COc1ccc([C@@]23Oc4cc(OC)cc(OC)c4[C@@]24NC(C2CC2)=N[C@@]4(O)[C@H](C(=O)N(C)OC)[C@H]3c2ccccc2)cc1 | 39.9 mP |
| COc1ccc([C@@]23Oc4cc(OC)cc(OC)c4[C@]2(O)c2nc(-c4ccc(F)cc4)[nH]c(=O)c2[C@H]3c2ccccc2)cc1 | 5.1 mP |
| COc1ccc([C@@]23Oc4cc(OC)cc(OC)c4[C@]2(O)c2nc(-c4cccc(C)c4)[nH]c(=O)c2[C@H]3c2ccccc2)cc1 | 12.3 mP |
| COc1ccc([C@@]23Oc4cc(OC)cc(OC)c4[C@]2(O)c2nc(-c4ccc(Br)cc4)[nH]c(=O)c2[C@H]3c2ccccc2)cc1 | 3.5 mP |
